# Measured values pooled from the literature.
# ± marks the error that the study gave.
# UCHL1: Ubiquitin carboxyl-terminal hydrolase isozyme L1 (UCHL1, Homo sapiens, UniProt P09936)
# UniProt P09936, sequence (whole entry, looked up): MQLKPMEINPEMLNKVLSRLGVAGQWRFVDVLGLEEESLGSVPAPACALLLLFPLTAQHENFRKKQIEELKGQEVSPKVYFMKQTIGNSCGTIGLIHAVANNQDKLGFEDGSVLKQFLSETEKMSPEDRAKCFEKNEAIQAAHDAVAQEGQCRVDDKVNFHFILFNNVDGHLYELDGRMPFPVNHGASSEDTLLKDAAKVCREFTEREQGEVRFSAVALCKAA
Structure (SMILES),tested on,assay,test system,setting,how to read,quantity,result
N#Cc1ccc(C[C@@H](Nc2nnc(-c3ccc(F)cc3)s2)C(=O)N2CCc3ccccc32)cc1,human neutrophils,"calcium mobilization, agonist",,,,EC50,> 50 µM
CCOC(=O)c1cc(Cl)cc(NC(=O)c2sc(Cl)cc2S(=O)(=O)N(C)c2ccc(OCC)c(OCC)c2)c1,CCF-STTG1,"ABCA1 promoter reporter, activator, luciferase reporter",,,,EC50,0.247 µM
CCn1cc(-c2cc(Cn3ccoc3=N)cc3c2CCN([C@@H](C)c2cc(OC)ccn2)C3=O)c(C(F)(F)F)n1,PSN1,"cell growth, inhibitor",,120 h,,EC50,0.0189 µM
N#Cc1ccc(C[C@H](Nc2nnc(-c3ccc(Br)cc3)s2)C(=O)N2CCc3ccccc32)cc1,human neutrophils,"calcium mobilization, agonist",,,,EC50,> 50 µM
OCCN(CCO)c1nc(N2CCCCC2)c2nc(N(CCO)CCO)nc(N3CCCCC3)c2n1,"Jurkat T cells, FKBP51 knock-out","[3H]-thymidine incorporation, inhibitor",,3 h,,EC50,0.0723 µM
CC1(C)OB(O)c2cc(NC(=O)c3ccc(F)cc3C(F)(F)F)ccc21,Trypanosoma cruzi,"reporter translation, Renilla luciferase mRNA translation",cell-free extract,40 µM,baseline: DMSO,inhibition,-2.4%
CCOC(=O)c1cc(F)cc(NC(=O)c2sc(Cl)cc2S(=O)(=O)N(C)c2ccc(OCC)c(OC)c2)c1,CCF-STTG1,"ABCA1 promoter reporter, activator, luciferase reporter",,,,EC50,0.029 µM
N#Cc1ccc(C[C@H](Nc2nnc(-c3cccc(Br)c3)o2)C(=O)N2CCc3ccccc32)cc1,human neutrophils,"calcium mobilization, agonist",,,,EC50,35.9 ± 9.7 µM
CC(C)[C@H](NC(=O)[C@H](Cc1ccc(O)cc1)NC(=O)[C@H](Cc1ccc(O)cc1)NC(=O)[C@@H]1CCCN1C(=O)[C@H](CCC(=O)O)NC(=O)[C@H](CCC(=O)O)NC(=O)[C@H](Cc1c[nH]c2ccccc12)NC(=O)[C@@H]1CCCN1C(=O)[C@@H](NC(=O)[C@H](CCC(N)=O)NC(=O)c1ccc2c(c1)C(=O)OC21c2ccc(O)cc2Oc2cc(O)ccc21)C(C)C)C(=O)N[C@H](C(=O)N[C@@H](CCCCN)C(=O)N[C@@H](CCCCN)C(=O)N[C@@H](CO)C(=O)N[C@@H](CO)C(=O)NCC(=O)NCC(N)=O)C(C)C,,measured: total compound,"human, plasma","intravenous infusion, 500 mg, 2 h",,plasma concentration,587 ng/mL
CCOC(=O)c1cccc(NC(=O)c2sc(Cl)cc2S(=O)(=O)N(C)c2ccc(OCC)c(OCC)c2)c1,CCF-STTG1,"reporter gene, activator, measured: ABCA1 promoter luciferase",,24 h,,EC50,0.82 µM
C[C@]1(c2nc3c(C(N)=O)cccc3[nH]2)CCCN1,MEF PTEN-/-,"cell proliferation, CellTiter-Glo",,168 h,,EC50,1.7 µM
CCOc1ccc(N(C)S(=O)(=O)c2cc(Cl)sc2C(=O)Nc2cc(Cl)cc(C(=O)OCCOC)c2)cc1OC,CCF-STTG1,"ABCA1 promoter reporter, activator, luciferase reporter",,,,EC50,0.066 µM
Cc1cccc(-c2nnc(N[C@@H](Cc3ccc(C#N)cc3)C(=O)N3CCc4ccccc43)o2)c1,human neutrophils,"calcium mobilization, agonist",,,,EC50,36 ± 10.5 µM
CCOC(=O)c1cc(Cl)cc(NC(=O)c2sc(Cl)cc2S(=O)(=O)N(C)c2ccc(OCC)c(OC)c2)c1,CCF-STTG1,"reporter gene, activator, measured: ABCA1 promoter luciferase",,24 h,,EC50,0.1 µM
Cc1ccc(-c2nnc(N[C@@H](Cc3ccc(C#N)cc3)C(=O)N3CCc4ccccc43)o2)cc1,human neutrophils,"calcium mobilization, agonist",,,,EC50,29.5 ± 10.8 µM
CCOc1ccc(N(C)S(=O)(=O)c2ccsc2C(=O)Nc2cccc(C(=O)OC)c2)cc1,CCF-STTG1,"reporter gene, activator, measured: ABCA1 promoter luciferase",,24 h,,EC50,4 µM
N#Cc1ccc(C[C@@H](Nc2c(Nc3ccc(Br)cc3)c(=O)c2=O)C(=O)N2CCc3ccccc32)cc1,human neutrophils,"calcium mobilization, agonist",,,,EC50,> 50 µM
CCCNC(=O)[C@H]1O[C@@H]1C(=O)N[C@H](C(=O)N1CCC[C@H]1C(=O)OC)[C@@H](C)CC,MCF-10A,"cell viability, MTT",,"concentration not given, 72 h, irradiated 15 min up to 470 nm",,EC50,49 ± 0.5 µM
C=CC(=O)N1[C@@H](c2ccc3c(c2)OCO3)c2[nH]c3ccccc3c2C[C@H]1C(=O)NC,rat DRG neurons,neurite degeneration,,"48 h, added: vincristine 40 nM",,EC50,3.63 µM
CCOc1ccc(N(C)S(=O)(=O)c2cc(Cl)sc2C(=O)Nc2cccc(S(C)(=O)=O)c2)cc1OCC,CCF-STTG1,"reporter gene, activator, measured: ABCA1 promoter luciferase",,24 h,,EC50,12.6 µM
C[C@]12CCCN1CC1=NNC(=O)c3cc(F)cc4[nH]c2c1c34,BGC-823 gastric cancer cells,cell viability,,"concentration not given, added: with temozolomide",,EC50,> 10 µM
COc1cnc2cccc(N3CCc4c(cc(Cn5ccnc5C)cc4-c4cn(C)nc4C(F)(F)F)C3=O)c2c1,U266B1,cell growth,,120 h,,EC50,> 30 µM
N.N.O=C([O-])C1(C(=O)[O-])CCC1.[Pt+2],OVCAR4 compound-resistant,cell viability,,,,EC50,233 µM
CCOC(=O)c1cccc(NC(=O)c2sc(Cl)cc2S(=O)(=O)N(C)c2ccc(N(C)C)cc2)c1,CCF-STTG1,"reporter gene, activator, measured: ABCA1 promoter luciferase",,24 h,,EC50,5 µM
O=C(Nc1ccc(-c2ccccc2)cc1)[C@H]1O[C@H](O[C@@H]2[C@@H](OCc3ccc4ccccc4c3)[C@H](O[C@H]3O[C@H](CNS(=O)(=O)O)[C@@H](OCc4ccc5ccccc5c4)C[C@H]3NS(=O)(=O)O)[C@@H](NS(=O)(=O)O)C[C@H]2NS(=O)(=O)O)[C@H](OCc2ccc3ccccc3c2)[C@@H](NS(=O)(=O)O)[C@@H]1OCc1ccc2ccccc2c1,MCF-10A,cytotoxicity,,48 h,,EC50,51.6 ± 1.87 µM
CC(C)c1noc2ncc(C(=O)N3CCSSCC3)cc12,UCHL1,"covalent, intact protein LC-MS",,12.5 µM,,labelling,7.71%
N#Cc1ccc(C[C@@H](NC(=O)c2cc3ccccc3[nH]2)C(=O)N2CCc3ccccc32)cc1,human neutrophils,"calcium mobilization, agonist",,,,EC50,> 50 µM
CCn1cc(-c2cc(Cn3ccnc3)cc3c2CCN([C@H](c2cc(OC)ccn2)C2CC2)C3=O)c(C(F)(F)F)n1,GCIY,"cell growth, inhibitor",,120 h,,EC50,14.8 µM
Cc1ccc(NC(=O)C(C#N)=Cc2cccc(Cl)c2Cl)cc1,UCHL1,"covalent, intact protein LC-MS",,12.5 µM,,labelling,28.6%
N#Cc1ccc(C[C@H](Nc2nnc(-c3cccc(F)c3)s2)C(=O)N2CCc3ccccc32)cc1,human neutrophils,"calcium mobilization, agonist",,,,EC50,41.4 ± 6.8 µM
